# Assay results collected from several papers.
# Compare with care: the assays were run in different laboratories. ± gives the spread as reported.
SMILES,assay,test system,conditions,tissue uptake [%ID/g]
N=C(N)NCc1ccc(C(=O)NCCCC[C@H](NC(=O)N[C@@H](CCC(=O)O)C(=O)O)C(=O)O)cc1[211At],,"SCID mouse, PC-3 xenografts, lungs",1 h,3.29 ± 0.56
O=C(O)CC[C@H](NC(=O)O[C@@H](CCCCNC(=O)c1ccc([18F])cc1)C(=O)O)C(=O)O,,"mouse, PC-3 PIP/flu xenografts, kidney",90 min,1.51 ± 0.22
CCCC[C@H](NC(=O)CCOCCOCCNC(=O)CN1CCN(CC(=O)O)CCN(CC(=O)O)CCN(CC(=O)O)CC1)C(=O)N[C@H]1CC(=O)NCCCC[C@@H](C(N)=O)NC(=O)[C@H](Cc2c[nH]c3ccccc23)NC(=O)[C@H](CCCNC(=N)N)NC(=O)[C@@H](Cc2ccccc2)NC(=O)[C@H](Cc2c[nH]cn2)NC1=O [gallium-68 labelled],,"C57BL/6J mice male B16-F10 tumour, spleen","1 h post injection, unblocked",0.3 ± 0.1
C[C@]12CC[C@H](OCC[18F])C[C@H]1CC[C@@H]1[C@@H]2CC[C@]2(C)[C@@H](c3ccc(=O)oc3)CC[C@]12O,micro-PET imaging,"BALB/c nude mice, SMMC-7721 xenograft, tumour","intravenous, 7.4 MBq, 6 h",2.48 ± 0.57
CN[C@](C)(C[18F])C(=O)O,,"SCID mouse DU-145 xenograft, brain","30 min, post injection",0.3 ± 0.03
"O=C(c1ccc(F)cc1)C1CCN(C2Cc3c(cccc3OCC[18F])CC2O)CC1 (single isomer, unassigned; (-))",,"Sprague-Dawley rat, male, muscle","intravenous, dose not given, 120 min",0.235 ± 0.01
COc1cc2ccnc(Cc3ccc(O[11CH3])c(OC)c3)c2cc1OC,,"Sprague-Dawley rats, testes","intravenous, 0.08333 h",0.288 ± 0.035
COc1ccc(C)cc1NC(=O)OC1CC2CCCC(C1)N2Cc1ccc(CC[18F])cc1 (centres unmarked),,"BALB/c mice, EMT6 tumour, heart",5 min,18.5 ± 2.5
N=C(N)NCc1ccc(C(=O)NCCCC[C@H](NC(=O)N[C@@H](CCC(=O)O)C(=O)O)C(=O)O)cc1[131I],,"SCID mouse, PC-3 xenografts, stomach",14 h,0.26 ± 0.38
COc1cc2ncnc(Oc3cccc(N[11C](=O)Nc4cc(C(C)(C)C(F)(F)F)on4)c3)c2cc1OC,,"Balb/c nude mouse, female, A375 melanoma xenograft, blood","6.6 MBq, 30 min",1.75 ± 0.45
N=C(N)NCc1ccc(C(=O)NCCCC[C@H](NC(=O)CCCCCCC(=O)NCCCC[C@H](NC(=O)N[C@@H](CCC(=O)O)C(=O)O)C(=O)O)C(=O)O)cc1[211At],,"SCID mouse, PC-3 xenografts, kidneys",1 h,86.5 ± 15.5
CCNc1cc2[o+]c3cc(NCC)c(C)cc3c(-c3ccccc3C(=O)OCCOCC[18F])c2cc1C,,"rat, lung",60 min,0.58 ± 0.19
COc1cc(C(=O)NCCOCCOCCOCCNC(=O)c2ccc([18F])nc2)ccc1NC(=O)C1NC(CC(C)(C)C)C(C#N)(c2ccc(Cl)cc2F)C1c1cccc(Cl)c1F (centres unmarked),,"athymic male mice, HepG2 xenograft, large intestine",4 h,16.9 ± 1.45
C=Cc1cc(O)cc2nc(-c3ccc(O)c([76Br])c3)oc12,,"female C57BL/6 mouse, liver","6 h, high dose",0.14 ± 0.02

# A few entries again:
SMILES,assay,test system,conditions,tissue uptake [%ID/g]
COc1cc(C(=O)NCCOCCOCCOCCNC(=O)c2ccc([18F])nc2)ccc1NC(=O)C1NC(CC(C)(C)C)C(C#N)(c2ccc(Cl)cc2F)C1c1cccc(Cl)c1F (centres unmarked),,"athymic male mice, HepG2 xenograft, large intestine",4 h,16.9 ± 1.45
